Results from different studies.
Each numbered part is a random draw from the data of one study; scales do not carry over between parts.

Block 1
Target: Interferon regulatory factor 5, full length, phosphomimetic (IRF5, Homo sapiens, UniProt Q13568-2, residues 1-514, S451D/S453D/S456D/S462D)
Technique: protein-binding microarray
Form: double-stranded DNA, one strand shown
Sample: in vitro
Concentration: 940 nM top
Notes: 60-bp whole probe
With: salmon DNA 0.4 mg/ml
Relative to: random background probes
Direction: higher = stronger binding
Endpoint: fitted relative affinity
Shared flanks, not repeated: GCCTAGCAC … GTCTTGATTCGCTTGACGCTGCTG
Strand = TTAGAACTGAGTTTCGAATAGTGCTAG; result = 2.97 z-score
Strand = TTTTACATTTTAAGAAATGTGTGCTAG; result = -0.0441 z-score
Strand = TTAGGTATCTTTTTCCTTTAGTGCTAG; result = 0.924 z-score
Strand = GACGGACTGGGGTCTGGGGACGTGCTA; result = -0.486 z-score
Strand = TCATCCATGTGTTTAAAACTGTGCTAG; result = -0.0484 z-score
Strand = TCATTTGTCCCTATTTAACTGTGCTAG; result = 1.44 z-score
Strand = TTAGCTCTCCTACTGCTTTAGTGCTAG; result = 0.325 z-score
Strand = GACGGTTTCGACACTGGAGACGTGCTA; result = 6.25 z-score
Strand = AAGACCATCCTATGTAGATGTGTGCTA; result = -0.244 z-score
Strand = TTAGGTATCGGTATAGGTTAGTGCTAG; result = 9.85 z-score
Strand = TTAGGTTTCGGGACTGGGTTAGTGCTA; result = 8.37 z-score
Strand = TTAGATCTGAGTTTCGATTAGTGCTAG; result = 7.44 z-score
Strand = GACGAACTGAGTCTCGAGGCGTGCTAG; result = 0.387 z-score
Strand = TTAGATATCAGTAACGATTAGTGCTAG; result = -0.0563 z-score
Strand = GACGGTATCGGACTGAGGACGTGCTAG; result = 2.82 z-score
Strand = TTAGGTTTCCTACTTCTTTAGTGCTAG; result = 1.03 z-score
Strand = TTAGGTATCGGGTATCGGTAAGTGCTA; result = 7.49 z-score
Strand = CAGAATCTCTCATGTTACATTGTGCTA; result = 0.802 z-score
Strand = ATGCTACAATAAGTGTTAGTGTGCTAG; result = -0.226 z-score
Strand = GACGGTTTCCTTTCCGTGACGTGCTAG; result = 1.65 z-score
Strand = GACGGTAACGGGTTTCGGGACGTGCTA; result = 2.28 z-score
Strand = TTAGGTTTCGACACTGGGATAGTGCTA; result = 7.99 z-score
Strand = GACGGTTTCGGACTGGGAACGTGCTAG; result = 6.24 z-score
Strand = TTAGGTATCGGGTATCAGTTAGTGCTA; result = 6.29 z-score
Strand = TCAGTTTTCATTATTGTACTGTGCTAG; result = 1.95 z-score

Block 2
Target: RNA binding protein fox-1 homolog 2, RRM domain, GST-SBP tag (RBFOX2, Homo sapiens, UniProt O43251-10, residues 100-194)
Technique: RNA Bind-n-Seq
Form: RNA
Sample: in vitro
Concentration: 365 nM
Notes: natural RNA segment, single round, ends assumed
Relative to: no-protein control
Direction: higher = stronger binding
Endpoint: RBNS enrichment (R)
Construct (chain): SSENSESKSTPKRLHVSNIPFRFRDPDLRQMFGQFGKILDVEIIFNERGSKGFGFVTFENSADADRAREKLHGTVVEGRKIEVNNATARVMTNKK
Strand = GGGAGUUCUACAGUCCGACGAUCUGUUGACUCUCUUCCAUGCAUAUUUUAAGGAUUUGAAUCUGAUUUGAUUUGGAAAGUCAUGAAACUUGAACAGUUUCUGCAUUUCUUUUUUCCUUUGGCUGCCUUUUGUUUGGAAUUCUCGGGUGCCAA; result = 0.591
Strand = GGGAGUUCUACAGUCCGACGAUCAGACUUAAAAAGACUGCCCUUGACUCCUUGACACUAUAUCAAGUGCUGUGUAAGAGAGACUGGUCCGUGGGACCAGCCACACACAUUACCUCUUCCACUUGAAAUGACUCUGGAAUUCUCGGGUGCCAA; result = 0.3
Strand = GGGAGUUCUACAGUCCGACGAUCAUGCUUAAGAUUUGAUUUUUACUUUUCAAAGCAACAUUUUGUUGAAUUUUUUUCUGCACAGCUUUCCAAAAUAAAAAGCAGAAGUAUAAAAACCCAAACAAGUCCACCACUGGAAUUCUCGGGUGCCAA; result = 0.424
Strand = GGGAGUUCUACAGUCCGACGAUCGCAUUGAUUUAUGUUCCAGACAAAAAUAACACAAAUAAUAAUAUCCUUCGUUAUAACCACAAUGAGAUAAGUAUUGGCAUUAGUGUUCAGUGCCAUUUUAUACUUUCUCUUGGAAUUCUCGGGUGCCAA; result = 0.455
Strand = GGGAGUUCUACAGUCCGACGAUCUGAACGAACGAACGAACGAAUGAAAACACACACAAAAUGUUUCAAGUUCCCCUAAAAUAUGACCCACUUGUUCCGGGUCUAAGGCAGAAAAGAGACGCAGAAUAGCCAAAUGGAAUUCUCGGGUGCCAA; result = 0.784
Strand = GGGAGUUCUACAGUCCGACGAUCCCCCCAAAAGGCUCAGGAGCUGACUUUUAGAAGUGAGGUUCAAAGUCUUUAACCACUUCUGAAUCUCAUAUGGCCUGUUGCUCUUGGUCUUGCUAGACUCCCGUUUGUUCUGGAAUUCUCGGGUGCCAA; result = 0.44
Strand = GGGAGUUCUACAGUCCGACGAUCUUUACCAAUAACCAUAUUCUGGCUUAUUCUCCUACCCUCUGCUUCCAUUCAAUCUUCCCCACUAGGGGUUAUCAUUGGCAAUGGACGAGCUGAAGAUUUUGGAGCCUAUCUGGAAUUCUCGGGUGCCAA; result = 0.192
Strand = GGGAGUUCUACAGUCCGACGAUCAGCCUGUGGGCAGCAUGCCCAGAUUCCCAGACCUUAAGACACUGUGAGAGUUGUCUCUGUUGGUCCACUGUGUUUAGUUGCAAGGAUUUUUCCAUGUGUGGUGGUGUUUUUGGAAUUCUCGGGUGCCAA; result = 4.12
Strand = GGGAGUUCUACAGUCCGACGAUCCAGUGGGUAGUGUCUAAAGCGACACUUUACUCACAGCCUGGCUUGAGUCAACAGGAACACCAUAGCACCCACAAAUACUUCUACUUGAAUCAUAUUCUGUGCUUUUUCAAUGGAAUUCUCGGGUGCCAA; result = 0.285
Strand = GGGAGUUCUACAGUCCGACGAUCCUAUCUGCUGCUUCUUAGGUUGCUGUUGUACAUGGAACCAGGACUAGAGAUUUUUUCAGAUUUAUAGACUUAAAAAAUUAGAAUUUUAUUACCAGGCUUUCCUUCUCACCUGGAAUUCUCGGGUGCCAA; result = 0.673
Strand = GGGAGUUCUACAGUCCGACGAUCACAGGUGUUGGGGGCAGCCUGUAUUUUACCCUAGGGGCAGGUCUGCAUGGUGACCCCACAUUGCACUGGUAAACCAUUUGAGUCCCACUCUUCAUCCUGGAAGUGGGAACUGGAAUUCUCGGGUGCCAA; result = 0.882
Strand = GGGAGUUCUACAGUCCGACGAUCUCACUUAAAAGCUGACAGCCCUCAUCUGUCUCAUUGGCUACAUAAGAGCUGCAGAAGAUCCAUCAAUAACCAAGUAUAAAGAAAGAUUUUAAGACUAAGUACCAAUUGAGUGGAAUUCUCGGGUGCCAA; result = 0.321

Block 3
Target: Hepatocyte nuclear factor 3-alpha (Foxa1, Mus musculus, UniProt P35582, residues 1-468, full length assumed)
Sequence of UniProt P35582 (whole entry, looked up): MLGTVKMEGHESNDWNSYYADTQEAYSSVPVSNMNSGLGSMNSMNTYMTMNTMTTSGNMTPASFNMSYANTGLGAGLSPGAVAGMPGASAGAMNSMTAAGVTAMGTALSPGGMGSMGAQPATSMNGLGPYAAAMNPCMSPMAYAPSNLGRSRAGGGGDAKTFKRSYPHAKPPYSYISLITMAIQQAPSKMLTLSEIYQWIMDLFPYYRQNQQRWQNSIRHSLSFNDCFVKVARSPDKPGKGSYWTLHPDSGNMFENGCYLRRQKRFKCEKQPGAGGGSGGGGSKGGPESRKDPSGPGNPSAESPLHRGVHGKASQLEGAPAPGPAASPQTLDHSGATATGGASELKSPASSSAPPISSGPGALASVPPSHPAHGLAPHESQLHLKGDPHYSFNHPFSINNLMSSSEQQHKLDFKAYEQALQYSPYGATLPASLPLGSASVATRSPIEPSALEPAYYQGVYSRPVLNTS
Technique: EMSA with sequencing
Form: double-stranded DNA, one strand shown
Sample: in vitro
Concentration: 10 and 20 nM
Notes: whole designed probe, mean of two concentrations, ends assumed
Relative to: negative control set to 0
Direction: higher = stronger binding
Endpoint: normalised bound fraction
Strand = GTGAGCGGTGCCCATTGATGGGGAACTTTTAAAAGGTTTTTAAAAGAATAAACAATTTTCTTTAAAAAATCATGCTACTGTAACATGATTTTACATAAAGACTGTACATATTGTAACAATGTAATCTAAGAATGATTTACTCTAATGGAAGCCAAGGGTGACAATAAAATCCTCTAAGCTGCAAATGGTGAAGTTATAGGGCCCAACCTGAAAGAGGGGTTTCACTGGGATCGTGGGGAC; result = 0.0921 ratio
Strand = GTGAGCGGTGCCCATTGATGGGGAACAATGATTAGTTTACACATATACATCGCTTTTGAAGGCCCCCAAACACCAGGGGACCATAGAGATCCTTTGGACTTCATGATTCTGGGAGTGTTAGATTGCACTGATACCTGAAGAAATAGATCTTGAGGGCCTACATTCCAACCTCTGGGCTGAAGTACCAACCTCGGGGAGAAGGAAACAAAGATCACAATATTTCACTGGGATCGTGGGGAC; result = 0.0271 ratio
Strand = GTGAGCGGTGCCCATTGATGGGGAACAGGGACACTCAGAGAGTGAGGGAAGAAGGCTCTGAAGATCTCACTACTGCAGAGCAATCTGCTCCATAGAGAGATCTTCCTCACCCCAGAGAAAGATTACTCTATTAAATGTTAGAAGAGCATGTGTAATTTGCAAGCTTATTTAGTTTTCAGTTCCACCTCCCTTGGAAAGGAAAAGTGATACAATCATCTTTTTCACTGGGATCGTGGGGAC; result = 0.0204 ratio
Strand = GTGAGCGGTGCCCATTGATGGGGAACTGATGAGAAACATGATAATTATTTAGTCTGAAAGGATCTTCTCCAATAATTTTTTTTTGTCGTGATACATTCCTGACTTCTCCACCCCCAAATGCAATCTAACCTAAATTGAGGGAAATTCTATGCAATACCTAACCATTATTCATCAAATGTACTCTGGAGTACAGTGACACAATCATGGTTCACTGTAACCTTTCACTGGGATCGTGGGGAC; result = -0.0615 ratio
Strand = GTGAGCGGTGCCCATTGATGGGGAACAGCAAGGCTTTAAAAGTGAGGTCTTTCAGTTTAGATGCAAAAAGGGTGGTTCTGTTGAGTCAAGTTTCGTAATCCCAGCTATTTCACTACATAGTAAACACCTAGAATGAGGTAGCTGGAGTGCAAATCTAAATGGCTTGTGACAGTTAAGGAAGTACATAGGCAACAGTTACTGGTTTTCTTGATGCAGCTGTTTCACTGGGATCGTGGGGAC; result = -0.00592 ratio
Strand = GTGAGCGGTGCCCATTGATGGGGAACTCGGCCAGCCTGGCTTCTGCGCCCCGCCAGGAGGTCGCGGAGCGGAGCGCGGCCAGGAATGACTCATTCAGTGACAGCTCCCCCCACGCTGTTTGTTTATTCATGTCACATTCTCTCCACACACTGGCTCTTCTTTCTTTCGGGAGGAGGGGAGAAAGGAGCGGGAGGGCGGGCGGGCAGGGGAGAGGCAGGCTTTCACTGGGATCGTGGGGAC; result = 0.393 ratio
Strand = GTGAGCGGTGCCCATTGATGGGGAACTCCCCATGGCTGATATGTTATTTTCCTCATCTACAGAGATTTCTGTCCACCAAGAACTCCATCATAGTGTTTTTACATTCTCCATTTTTATGCTGTTTACAGAAACAGAAACTGTCCTTTTCAGATGGGGTCTCAAGCGCAGCCCAACATACCACAGGAAGAAATTGCCCCATCTTCCCTGGAGAAAATGCCATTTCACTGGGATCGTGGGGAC; result = 0.125 ratio
Strand = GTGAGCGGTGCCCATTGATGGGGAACATGAAGGGCTGCCAGTGTAATTTGAACCTCAAATAAACAACAGATAAAACTGTAGTATAAGTATGTCCCATATAATGCACATCACGATCTTTTTGTTTGCCTAATCTGGCAAAGATATTGACTTAACACACACTAATCTGTTGACAGGTAGGTGAAATATTTGAACTTCTACGTTGCTTCTCTAATCCTGTCCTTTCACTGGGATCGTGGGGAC; result = 0.393 ratio

Block 4
Target: Histone acetyltransferase KAT6A, winged helix 2, GST fusion (KAT6A, Homo sapiens, UniProt Q92794, residues 85-181)
Technique: protein binding microarray
Form: double-stranded DNA, one strand shown
Sample: in vitro
Concentration: not given
Notes: 8-mer, flanks averaged, mean of 2 arrays, mostly near background
Relative to: not given
Direction: higher = stronger binding
Endpoint: E-score
Residues (chain): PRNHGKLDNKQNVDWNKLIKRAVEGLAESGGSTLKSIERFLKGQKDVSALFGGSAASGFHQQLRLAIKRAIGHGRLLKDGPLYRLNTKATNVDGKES
Strand = CCCAATGA; result = -0.0499
Strand = CGGAAACC; result = 0.0196
Strand = CTGAAGCC; result = -0.0284
Strand = GTGCTTAA; result = 0.0647
Strand = AGGCCAAG; result = -0.0489
Strand = AACGCCCT; result = 0.0519
Strand = CCTAACAA; result = 0.0805
Strand = CTCATACC; result = 0.0131
Strand = ATTCCCGC; result = 0.132
Strand = CATGCAGG; result = -0.116
Strand = CCTCTTCG; result = 0.149
Strand = ACAGTTAA; result = -0.0587
Strand = ATTGTCAC; result = 0.035
Strand = AATCTACT; result = 0.0353
Strand = CCGGAGAC; result = 0.102
Strand = GTGTAACA; result = -0.119
Strand = GCCCCCAC; result = -0.0238
Strand = AACCTGCA; result = 0.0355

Excerpt of the above (block 1):
Strand = TTTTACATTTTAAGAAATGTGTGCTAG; result = -0.0441 z-score
Strand = TTAGGTTTCGGGACTGGGTTAGTGCTA; result = 8.37 z-score
Strand = TCATCCATGTGTTTAAAACTGTGCTAG; result = -0.0484 z-score
Strand = TTAGGTATCGGTATAGGTTAGTGCTAG; result = 9.85 z-score
Strand = TCATTTGTCCCTATTTAACTGTGCTAG; result = 1.44 z-score
